Results collected from several papers.
A part holds a random share of what one study measured. Several values in a cell are separate wells, animals, samples, runs or records.
Sequence of UniProt P35462 (whole entry, looked up): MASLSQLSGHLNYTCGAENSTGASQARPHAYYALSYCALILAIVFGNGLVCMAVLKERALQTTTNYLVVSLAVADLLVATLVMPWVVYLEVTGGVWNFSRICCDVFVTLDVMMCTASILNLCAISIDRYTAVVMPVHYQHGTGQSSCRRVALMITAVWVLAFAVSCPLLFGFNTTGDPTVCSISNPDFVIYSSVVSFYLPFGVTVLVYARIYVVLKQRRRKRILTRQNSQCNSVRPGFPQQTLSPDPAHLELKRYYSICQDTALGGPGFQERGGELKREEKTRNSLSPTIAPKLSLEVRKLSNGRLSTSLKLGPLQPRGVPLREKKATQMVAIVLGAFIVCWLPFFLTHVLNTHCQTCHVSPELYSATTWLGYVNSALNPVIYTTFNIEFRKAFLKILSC

Series 1
Target: PABPC1L2, full length, GST fusion (mouse, UniProt A0ABA7IW68)
Technique: RNAcompete
Molecule type: RNA
Sample: in vitro
Concentration: 20 nM
Setting: 7-mer, probes averaged, single round
Baseline: mean of 7-mers
Direction: higher = stronger binding
Endpoint: 7-mer Z-score
Residues (chain): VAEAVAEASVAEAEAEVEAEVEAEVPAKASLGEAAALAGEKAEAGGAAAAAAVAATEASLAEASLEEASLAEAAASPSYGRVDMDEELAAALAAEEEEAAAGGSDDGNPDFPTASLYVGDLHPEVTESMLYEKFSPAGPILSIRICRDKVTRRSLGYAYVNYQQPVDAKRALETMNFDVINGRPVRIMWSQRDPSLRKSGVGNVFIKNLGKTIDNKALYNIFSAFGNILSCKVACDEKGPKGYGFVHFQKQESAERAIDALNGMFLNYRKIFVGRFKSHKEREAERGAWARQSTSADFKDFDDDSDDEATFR
UGCUAUG: -0.161
CUGCUCC: -0.315
GCCCGCG: -0.237
UUGAGCG: -0.22
UCCAUUA: -0.315
CAUGGGC: 0.129
CCGUUAG: -0.461
UCCUUAG: -0.307

Series 2
Target: Protein max, full length (MAX, Homo sapiens, UniProt P61244-2, residues 1-151)
Technique: protein-binding microarray
Molecule type: double-stranded DNA, one strand shown
Sample: in vitro
Concentration: not given
Setting: k-mer, scored over probes, only values ≥0.25
Direction: higher = stronger binding
Endpoint: E-score
ATCATGTG: 0.464
CGTGTTGC: 0.355
CCACGCGG: 0.482
CACCTGCG: 0.369
GCCACGCC: 0.371
ATGCCCAC: 0.317
AGCGTGAA: 0.305
GCATGATA: 0.349

Other studies, line by line
CC(C)(C(=O)O)[C@H](NC(=O)Cc1cccc(I)c1)c1ccc2oc(=O)[nH]c2c1
spheroid area (A375; Incucyte 3D growth; 30 µM, 450.52 h; higher = more growth): 1.55e+08 a.u. and 1.44e+08 a.u. and 1.73e+08 a.u. and 1.68e+08 a.u. and 1.79e+08 a.u. and 1.6e+08 a.u.

CC1(C)S[C@@H]2[C@H](NC(=O)Cc3ccccc3)C(=O)N2[C@H]1C(=O)O
viability (A-375; 100 µM, 60 h): 100%

CC(C)(C)c1cnc(CSc2cnc(NC(=O)C3CCN(CCCCSc4cccc5c4C(=O)N(C4CCC(=O)NC4=O)C5=O)CC3)s2)o1 (centres unmarked)
viability (HH; CCK-8; 200 nM): 1.44%

NS(=O)(=O)c1cc(NC(=O)C2(c3ccccc3Cl)CC2)ccc1Oc1cccc(Cl)c1
inhibition (D(3) dopamine receptor (DRD3, Homo sapiens, UniProt P35462); cell-free assay; 10 µM): 10.5%

A few entries again (other studies, line by line):
NS(=O)(=O)c1cc(NC(=O)C2(c3ccccc3Cl)CC2)ccc1Oc1cccc(Cl)c1
inhibition (D(3) dopamine receptor (DRD3, Homo sapiens, UniProt P35462); cell-free assay; 10 µM): 10.5%
